Published values of several laboratories.
Compare with care: the assays were run in different laboratories. ± marks the error that the study gave. Non-standard residues stand in square brackets, D forms with d. Where no end group is shown, it is not given here. No end group written: not given here.
Ferroportin: Ferroportin (Mus musculus, UniProt Q9JHI9)
Sequence of UniProt Q9JHI9 (whole entry, looked up): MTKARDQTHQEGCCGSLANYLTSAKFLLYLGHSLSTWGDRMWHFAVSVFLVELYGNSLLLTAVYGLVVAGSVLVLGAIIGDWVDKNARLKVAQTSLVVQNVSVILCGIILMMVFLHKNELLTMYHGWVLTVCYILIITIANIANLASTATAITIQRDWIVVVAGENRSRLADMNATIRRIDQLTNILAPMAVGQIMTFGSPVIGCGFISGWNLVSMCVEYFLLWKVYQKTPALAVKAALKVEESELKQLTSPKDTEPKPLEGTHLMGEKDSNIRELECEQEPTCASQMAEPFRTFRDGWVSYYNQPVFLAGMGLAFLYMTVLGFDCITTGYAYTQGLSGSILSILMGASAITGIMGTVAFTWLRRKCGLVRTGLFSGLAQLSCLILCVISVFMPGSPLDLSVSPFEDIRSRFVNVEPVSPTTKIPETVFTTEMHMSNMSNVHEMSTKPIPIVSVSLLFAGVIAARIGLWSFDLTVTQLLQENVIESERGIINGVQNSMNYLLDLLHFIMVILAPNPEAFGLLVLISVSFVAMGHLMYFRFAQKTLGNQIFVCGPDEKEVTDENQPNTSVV
B1: UGT1A9 (Homo sapiens, UniProt O60656); chain GKLLVVPMDGSHWFTMRSVVEKLILRGHEVVVVMPEVSWQLGRSLNCTVKTYSTSYTLEDLDREFKAFAHAQWKAQVRSIYSLLMGSYNDIFDLFFSNCRSLFKDKKLVEYLKESSFDAVFLDPFDNCGLIVAKYFSLPSVVFARGILCHYLEEGAQCPAPLSYVPRILLGFSDAMTFKERVRNHIMHLEEHLLCHRFFKNALEIASEILQTPVTEYDLYSHTSIWLLRTDFVLDYPKPVMPNMIFIGGINCHQGKPLPMEFEAYINASGEHGIVVFSLGSMVSEIPEKKAMAIADALGKIPQTVLWRYTGTRPSNLANNTILVKWLPQNDLLGHPMTRAFITHAGSHGVYESICNGVPMVMMPLFGDQMDNAKRMETKGAGVTLNVLEMTSEDLENALKAVINDKSYKENIMRLSSLHKDRPVEPLDLAVFWVEFVMRHKGAPHLRPAAHDLTWYQYHSLDVIGFLLAVVLTVAFITFKCCAYGYRKCLGKKGRVKKAHKSKTH
B2: chain DFVLDNEGNPLENGGTYYILSDITAFGGIRAAPTGNERCPLTVVQSRNELDKGIGTIISSPYRIRFIAEGHPLSLKFDSFAVIMLCVGIPTEWSVVEDLPEGPAVKIGENKDAMDGWFRLERVSDDEFNNYKLVFCPQQAEDDKCGDIGISIDHDDGTRRLVVSKNKPLVVQFQKLDKESL
B3: chain SAGTSCVPGWAIPHNPLPSCRWYVTSRTCGIGPRLPWPELKRRCCRELADIPAYCRCTALSILMDGAIPPGPDAQLEGRLEDLPGCPREVQRGFAATLVTEAECNLATIS
B4: cipA 183-322 (Clostridium thermocellum, UniProt Q06851); sequence looked up; chain GVVVEIGKVTGSVGTTVEIPVYFRGVPSKGIANCDFVFRYDPNVLEIIGIDPGDIIVDPNPTKSFDTAIYPDRKIIVFLFAEDSGTGAYAITKDGVFAKIRATVKSSAPGYITFDEVGGFADNDLVEQKVSFIDGGVNVG
Sequence of UniProt P53350 (whole entry, looked up): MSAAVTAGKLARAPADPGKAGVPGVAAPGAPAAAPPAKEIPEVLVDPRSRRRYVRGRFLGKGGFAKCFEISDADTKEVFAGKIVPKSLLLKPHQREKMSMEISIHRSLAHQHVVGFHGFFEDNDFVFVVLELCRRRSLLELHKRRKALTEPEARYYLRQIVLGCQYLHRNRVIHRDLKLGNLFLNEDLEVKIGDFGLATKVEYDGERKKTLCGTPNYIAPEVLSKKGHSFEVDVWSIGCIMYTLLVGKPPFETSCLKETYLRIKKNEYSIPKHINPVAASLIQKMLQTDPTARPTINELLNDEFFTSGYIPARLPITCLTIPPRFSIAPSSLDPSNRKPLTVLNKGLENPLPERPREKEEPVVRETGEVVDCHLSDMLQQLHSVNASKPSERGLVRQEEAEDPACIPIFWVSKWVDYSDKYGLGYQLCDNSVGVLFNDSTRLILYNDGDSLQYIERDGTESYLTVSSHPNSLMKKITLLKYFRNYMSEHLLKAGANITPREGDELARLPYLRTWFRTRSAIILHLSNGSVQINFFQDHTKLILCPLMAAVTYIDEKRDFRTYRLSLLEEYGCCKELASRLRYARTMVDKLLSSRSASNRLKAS
Sequence of UniProt P56817 (whole entry, looked up): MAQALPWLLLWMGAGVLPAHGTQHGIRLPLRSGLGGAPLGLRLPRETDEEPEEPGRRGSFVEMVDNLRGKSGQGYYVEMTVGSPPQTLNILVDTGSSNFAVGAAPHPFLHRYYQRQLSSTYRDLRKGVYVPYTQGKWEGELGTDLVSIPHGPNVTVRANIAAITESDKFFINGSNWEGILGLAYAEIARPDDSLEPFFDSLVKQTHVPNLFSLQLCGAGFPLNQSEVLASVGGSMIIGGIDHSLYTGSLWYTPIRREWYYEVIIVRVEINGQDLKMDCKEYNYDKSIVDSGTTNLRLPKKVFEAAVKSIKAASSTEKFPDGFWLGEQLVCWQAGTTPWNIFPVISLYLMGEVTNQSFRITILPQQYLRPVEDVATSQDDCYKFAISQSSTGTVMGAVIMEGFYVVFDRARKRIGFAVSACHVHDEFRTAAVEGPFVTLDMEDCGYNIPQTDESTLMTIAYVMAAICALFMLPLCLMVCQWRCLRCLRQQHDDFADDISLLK
Sequence of UniProt P06344 (whole entry, looked up): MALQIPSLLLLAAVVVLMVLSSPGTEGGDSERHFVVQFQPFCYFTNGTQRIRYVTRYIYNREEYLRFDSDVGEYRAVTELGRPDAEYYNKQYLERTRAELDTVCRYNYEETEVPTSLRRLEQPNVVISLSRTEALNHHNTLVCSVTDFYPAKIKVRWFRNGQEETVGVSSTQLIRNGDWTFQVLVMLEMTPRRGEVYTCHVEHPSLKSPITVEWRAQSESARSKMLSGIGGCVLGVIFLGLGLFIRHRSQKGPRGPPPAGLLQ
Sequence of UniProt P14438 (whole entry, looked up): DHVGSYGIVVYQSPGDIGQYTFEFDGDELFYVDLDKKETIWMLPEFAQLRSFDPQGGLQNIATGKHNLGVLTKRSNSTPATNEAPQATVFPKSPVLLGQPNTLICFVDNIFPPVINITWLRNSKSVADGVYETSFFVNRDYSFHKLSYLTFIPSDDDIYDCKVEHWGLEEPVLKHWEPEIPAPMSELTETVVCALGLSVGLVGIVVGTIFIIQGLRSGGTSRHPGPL
Sequence of UniProt A3DH67 (whole entry, looked up): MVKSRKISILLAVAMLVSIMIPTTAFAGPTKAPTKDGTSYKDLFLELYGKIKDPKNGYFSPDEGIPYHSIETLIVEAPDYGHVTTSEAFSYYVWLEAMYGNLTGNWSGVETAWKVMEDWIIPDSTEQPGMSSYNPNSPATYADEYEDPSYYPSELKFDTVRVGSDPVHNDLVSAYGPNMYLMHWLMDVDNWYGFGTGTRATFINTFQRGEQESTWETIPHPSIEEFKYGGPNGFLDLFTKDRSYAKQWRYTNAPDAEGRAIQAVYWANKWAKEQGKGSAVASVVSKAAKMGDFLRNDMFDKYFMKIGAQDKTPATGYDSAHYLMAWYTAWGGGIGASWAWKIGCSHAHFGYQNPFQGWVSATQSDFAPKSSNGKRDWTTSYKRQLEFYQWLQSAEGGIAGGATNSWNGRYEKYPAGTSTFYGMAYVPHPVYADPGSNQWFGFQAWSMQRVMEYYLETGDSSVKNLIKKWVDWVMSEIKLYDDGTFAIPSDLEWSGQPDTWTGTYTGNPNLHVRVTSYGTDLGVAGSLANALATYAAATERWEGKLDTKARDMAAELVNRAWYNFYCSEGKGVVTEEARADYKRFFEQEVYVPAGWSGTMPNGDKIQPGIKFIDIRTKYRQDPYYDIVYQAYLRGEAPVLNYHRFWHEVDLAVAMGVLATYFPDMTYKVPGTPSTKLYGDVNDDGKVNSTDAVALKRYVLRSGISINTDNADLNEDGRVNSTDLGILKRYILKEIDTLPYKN
Sequence of UniProt P11309 (whole entry, looked up): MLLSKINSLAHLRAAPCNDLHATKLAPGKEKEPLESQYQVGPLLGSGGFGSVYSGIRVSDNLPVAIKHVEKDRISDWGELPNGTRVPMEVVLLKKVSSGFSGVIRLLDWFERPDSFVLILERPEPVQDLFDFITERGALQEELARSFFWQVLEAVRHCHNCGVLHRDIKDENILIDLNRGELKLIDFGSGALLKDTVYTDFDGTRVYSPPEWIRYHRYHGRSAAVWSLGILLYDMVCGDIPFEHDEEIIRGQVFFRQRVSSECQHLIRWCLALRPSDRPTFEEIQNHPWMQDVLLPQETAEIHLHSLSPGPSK

angiostatin  Kd (Integrin alpha-M/beta-2 (Homo sapiens, UniProt P05107+P11215); binding): 500 nM
LHNHYT  inhibition (peptide, human polyclonal IgM RF STR; concentration not given, 5 µg/mL mAb II-481 coated, together with: RF at 50% max binding concentration): 0%
B1 (UGT1A9)  Vmax (O=c1c(O)c(-c2ccccc2)oc2cccc(O)c12; steady-state kinetics; pH 7.4, 37 °C): 0.0019 µmol/min/mg
acetyl-MBP(1-17)  relative abundance (H-2 class II histocompatibility antigen, A-U beta chain/H2-Aa (Mus musculus, UniProt P06344+P14438); peptide presentation by I-A, FT-ICR mass spectrometry; T cell-depleted B10.PL splenocytes, mouse; 16 h, 37 °C, together with: MBP 95 µg/mL; baseline: angiotensin internal standard): 2410
SQSVLYS  inhibition (peptide, human polyclonal IgM RF LOP; concentration not given, 5 µg/mL mAb II-481 coated, together with: RF at 50% max binding concentration): 18%
PTP1B  phosphorylation (Serine/threonine-protein kinase pim-1 (PIM1, Homo sapiens, UniProt P11309); substrate phosphorylation, substrate; 1 to 2 µM, 2 h, room temperature, together with: 100 nM kinase): not detected
ATHFPICIFCCGCCHRSKCGMCCKT-OH (hepcidin D1A; disulfide (positions not given here); ends not checked; sequence looked up)  ferroportin internalisation activity (Ferroportin; Fpn-GFP fluorescence loss, agonist, flow cytometry; peptide, HEK293 (ECR293) expressing mouse Fpn-GFP; 0.3 µM, 24 h, ponasterone-induced; baseline: native hepcidin-25): 67 ± 5%
B2  Ki (Plasma kallikrein (KLKB1, Homo sapiens, UniProt P03952); enzyme activity, inhibitor): 6150 nM
GLHST (FITC-labelled, PEGylated)  Kd (Serine/threonine-protein kinase PLK1, polo-box domain (PLK1, Homo sapiens, UniProt P53350); binding, fluorescence polarization; together with: FITC-labelled peptide): 26.7 ± 2.8 nM
DTHFAICIFCCGCCHRSKCGMCCKT-OH (hepcidin P5A; disulfide (positions not given here); ends not checked; sequence looked up)  ferroportin internalisation activity (Ferroportin; Fpn-GFP fluorescence loss, agonist, flow cytometry; peptide, HEK293 (ECR293) expressing mouse Fpn-GFP; 0.3 µM, 24 h, ponasterone-induced; baseline: native hepcidin-25): 77 ± 3%
B3  Ki (Coagulation factor XII (F12, Homo sapiens, UniProt P00748); enzyme activity, inhibitor): 120 nM
KTEEISEVN[Sta]VAEF (statine residue; Sta = CC(C)C[C@H](N)[C@@H](O)CC(=O)O)  IC50 (Beta-secretase 1 (BACE1, Homo sapiens, UniProt P56817); enzyme activity, surface plasmon resonance; peptide; 1 h, pH 4.5, 37 °C, together with: APP peptide substrate): 29 nM
B4 (cipA 183-322)  molecule per partner (celS dockerin module 673-739, 15N label (Clostridium thermocellum, UniProt A3DH67); ITC; pH 4.8, 298 K, KCl 100 mM, single-site model, together with: CaCl2 5 mM): 0.94 ± 0.002

Excerpt of the above:
angiostatin  Kd (Integrin alpha-M/beta-2 (Homo sapiens, UniProt P05107+P11215); binding): 500 nM
GLHST (FITC-labelled, PEGylated)  Kd (Serine/threonine-protein kinase PLK1, polo-box domain (PLK1, Homo sapiens, UniProt P53350); binding, fluorescence polarization; together with: FITC-labelled peptide): 26.7 ± 2.8 nM
